Measured values of several laboratories.
Cell line: RPMI-8226

Cc1ccc([N+](=O)[O-])cc1S(=O)(=O)N(C)/N=C/c1cnc2ccc(Br)cn12  IC50 (cytotoxicity, MTS): 77 nM
CC(C)c1ccc(N(C)c2ccc3c(c2)OCC[C@H]3CNc2cnccc2C(=O)O)cc1  IC50 (cell growth or viability, ATP luminescence; 7 days): 12.5 nM
CC(C)C[C@H](NC(=O)[C@H](Cc1ccccc1)NC(=O)[C@H](CCCNC(=N)N)NC(=O)[C@H](C)N)B(O)O  EC50 (cell growth or viability, ATP luminescence): 318 nM
CNS(=O)(=O)Nc1nccc(Cc2c(C)c3ccc(Oc4ncccc4F)cc3oc2=O)c1F  IC50 (cell viability; 7 days): 5.25 nM
CN(C)CCN1CCN(c2ccc3nc(-c4ccc5nc(-c6ccc(C(F)(F)F)cc6)[nH]c5c4)[nH]c3c2)CC1  growth percent (SRB; 10 µM, 48 h): 19.1%
CCOc1cncc(-c2ccc(NC(=O)C3(c4ccnc(NS(=O)(=O)C5CC5)n4)CCOCC3)nc2)n1  IC50 (cell growth or viability, ATP luminescence; 72 h): 347 nM
CCCC(CCC)C(=O)OCc1cn(-c2cc3ccccc3oc2=O)nn1  growth percentage (NCI60 single-dose screen; 10 µM): 100%
O=C(Nc1nnc2c1c(-c1ccc(Cl)cc1)nc1sc(=Cc3ccco3)c(=O)n12)c1ccccc1 (mixture of isomers)  cell growth (SRB; 10 µM, NCI60 single-dose screen; reference: untreated): 44.4%

Some of these lines once more:
CC(C)c1ccc(N(C)c2ccc3c(c2)OCC[C@H]3CNc2cnccc2C(=O)O)cc1  IC50 (cell growth or viability, ATP luminescence; 7 days): 12.5 nM
